Assay results gathered from unrelated publications.
Numbered parts are unrelated; each lists some results of a single study. Changes are numbered by the printed parent chain.

Study 1
Target: Sal-like protein 4, full length isoform B (SALL4, Homo sapiens, UniProt Q9UJQ4-2, residues 1-616)
Method: universal PBM
Form: double-stranded DNA, one strand shown
Medium: in vitro
Concentration: not given
Setting: 8-mer, flanks averaged, mean of replicates
Direction: higher = stronger binding
Residues (chain): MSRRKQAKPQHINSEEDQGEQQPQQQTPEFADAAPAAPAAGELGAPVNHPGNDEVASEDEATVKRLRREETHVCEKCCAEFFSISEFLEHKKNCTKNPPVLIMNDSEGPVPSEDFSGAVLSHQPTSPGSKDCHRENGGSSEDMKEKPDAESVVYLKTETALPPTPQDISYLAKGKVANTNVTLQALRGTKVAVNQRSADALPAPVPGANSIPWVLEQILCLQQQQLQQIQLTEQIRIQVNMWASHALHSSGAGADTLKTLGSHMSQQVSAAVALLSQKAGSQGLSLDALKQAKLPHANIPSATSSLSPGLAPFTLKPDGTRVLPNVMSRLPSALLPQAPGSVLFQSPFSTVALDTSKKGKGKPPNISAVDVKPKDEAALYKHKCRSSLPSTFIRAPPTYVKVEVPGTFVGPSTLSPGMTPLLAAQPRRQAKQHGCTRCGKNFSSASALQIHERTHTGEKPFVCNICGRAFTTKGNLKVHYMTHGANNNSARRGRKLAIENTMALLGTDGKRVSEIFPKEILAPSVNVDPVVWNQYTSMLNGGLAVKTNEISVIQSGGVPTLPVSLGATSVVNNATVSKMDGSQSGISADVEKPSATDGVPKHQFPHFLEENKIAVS
Sequence | E-score
AGGTAGGG | -0.0143
CAGTTGAA | -0.0488
AGGCTATA | 0.131
CCAGCTCG | -0.338
AATCTATG | 0.206
AACTTACT | 0.0236
CAATCGGA | -0.132
CATGGCAG | -0.0579
TAAGGTAA | 0.158
CGACTGAG | -0.33
CGACTACG | -0.0435
CGCAAAAC | 0.0354
CTTTCATA | 0.377
GGCCTTAA | 0.00358
TGAAGTCA | -0.0127
ACCAGAAG | 0.0457
AGGCAGGC | -0.219
CCTTTGTA | 0.114
TGTGACAA | -0.0115
TCTGCAAA | 0.102
TCTGTCAA | 0.101

Study 2
Target: RNA binding protein fox-1 homolog 2, RRM domain, GST-SBP tag (RBFOX2, Homo sapiens, UniProt O43251-10, residues 100-194)
Method: RNA Bind-n-Seq
Form: RNA
Medium: in vitro
Concentration: 365 nM
Setting: natural RNA segment, single round, ends assumed
Relative to: no-protein control
Direction: higher = stronger binding
Construct (chain): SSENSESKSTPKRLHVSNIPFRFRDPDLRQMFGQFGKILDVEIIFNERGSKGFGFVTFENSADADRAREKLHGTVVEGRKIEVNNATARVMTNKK
Sequence | RBNS enrichment (R)
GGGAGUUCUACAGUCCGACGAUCCAUUCUGCUGAAAAUUUAAAACAGAGGGAGGAAAAAGGUGUUAUGCCUAUGUAUGGGGGGGGGGCGGUAGUGGAGUGAGGUGUUAUGUCAUGAGCAUUCAGAUUGCUGAAUGGAAUUCUCGGGUGCCAA | 1.58
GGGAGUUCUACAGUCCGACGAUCAGACCUCAGGGUGCCCAGGUCCUGCAUCUCUCUAUUGCCCCACUUCCUGCUAUAAUCCCUGAUGAAAACCUGACGGUGAACUCACUAAUAAACAAGACUGACUCCUUCUUUGGAAUUCUCGGGUGCCAA | 0.56
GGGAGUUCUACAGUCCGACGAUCUCUCUGAAUCACUCUUCAAUCUUGGGCCUCUAUUGCCUUACUUCAAAUAUUGUACCUUGUUUAGCCUACCUCACAGGGCUGUUGUGAGGAGUGUAGUGAAACGGACUCUCUGGAAUUCUCGGGUGCCAA | 0.279
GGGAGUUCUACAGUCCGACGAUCAAAGGCCCGAGUGGCUUUGAUGCAGUUGGUAACCACUUGAGAGCAGAGAUGUCUUAACUUGUCAGGAGUCCUUACCUGACAUGACCCUGUUUCAACAGGAAAGUAGAUGUUGGAAUUCUCGGGUGCCAA | 0.216
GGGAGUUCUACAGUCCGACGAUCGGUUUUUGGAGACAGGGUCUCACUGUGUAGUCCUAGCUGGCCUGGAACUCACUAUGUAGAUCAGGCUGGACUGAACUCACAAAGAUCCACCUGCCUCUGCCUCACAAAUGUGGAAUUCUCGGGUGCCAA | 0.248
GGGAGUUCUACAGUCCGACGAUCGGUUGGUUCCUCAUCCUCCACCCUGACCUUUCCUCUGGCCUGUUCAAGGCCUGGUAAAGUCAGGCUCCUGGGAGUGGCAUUUCCUGUUUGACCUCUACCCAUCUCCCAGUUGGAAUUCUCGGGUGCCAA | 0.231
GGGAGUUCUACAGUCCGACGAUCAAAAUAAACAUACAAUAUCCAAAAAUAUAUUCUUUUCACAUAUUCAGUGUCUCCUAACAAACUAGUACUGGACUUACAGUACUGCCAAAUCUUUGUUAAGUUUCAUGAUGUGGAAUUCUCGGGUGCCAA | 0.432
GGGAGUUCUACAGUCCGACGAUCGCCCCUCCUAGUUCUUCAUCCCACUCCAACUCUUCCCCCUCUCCCAGUUGUCCCGAUUGUAACUCAAAGGGUGGAAUAUCAAGGUCGUUUUUUUCAUUCCAUGUGCCCAGUGGAAUUCUCGGGUGCCAA | 1.36

Study 3
Target: CCNE1, cyclin fold, Cln2 fusion (human)
Method: yeast growth competition, sequencing
Medium: yeast
Setting: strong parent motif
Relative to: not given
Direction: higher = stronger binding
Starting sequence: SCAPER docking peptide (human); SNARRSLNFGGST
Substitution | normalised enrichment score
SNADRSLNFGGST [R4D] | 0.383
SNARRSLNCGGST [F9C] | -0.128
SGARRSLNFGGST [N2G] | 1.73
SNARRSTNFGGST [L7T] | 0.483
DNARRSLNFGGST [S1D] | 1.02
SNAWRSLNFGGST [R4W] | 0.473
SNARRSLNFGGCT [S12C] | 1.52
SNARKSLNLGGST [R5K F9L] | -0.112
SNASRSLNFGGST [R4S] | -0.833
SNARRSLRFGGST [N8R] | 0.652
SNARRSLNRGGST [F9R] | 0.387
SNARRSLNFRGST [G10R] | 0.181
SNARRSLNFGHST [G11H] | 1
SNAKRSLNFGGST [R4K] | 0.391
SNARRSLNNGGST [F9N] | -0.628
SNARRSLNFGGGT [S12G] | 0.704
SNARRSLNFGTST [G11T] | 1.75
SNARFSLNFGGST [R5F] | 0.457
SKARRSLNFGGST [N2K] | 0.673
SNAHRSLNFGGST [R4H] | 0.0339
SNARRSLEFGGST [N8E] | 0.663
SNARRSLNFGGYT [S12Y] | 0.998
ANARRSLNFGGST [S1A] | 1.05
SNARRSLYFGGST [N8Y] | 0.501
SNARRSLNFGMST [G11M] | 0.672

Study 4
Target: Histone acetyltransferase KAT6A, winged helix 2, GST fusion (KAT6A, Homo sapiens, UniProt Q92794, residues 85-181)
Method: protein binding microarray
Form: double-stranded DNA, one strand shown
Medium: in vitro
Concentration: not given
Setting: 8-mer, flanks averaged, mean of 2 arrays, mostly near background
Relative to: not given
Direction: higher = stronger binding
Residues (chain): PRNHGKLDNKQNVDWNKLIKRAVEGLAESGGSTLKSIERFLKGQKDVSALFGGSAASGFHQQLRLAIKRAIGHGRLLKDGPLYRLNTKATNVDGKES
Sequence | E-score
ATCACAGC | 0.00975
CGATTCAC | -0.12
ACAAGCCA | 0.105
GCTACTCA | 0.136
ATATAGGA | -0.0439
ACCGTACC | -0.24
GAATCAAA | 0.0347
AAGGTACA | -0.0872
AGAGCAAG | 0.139
CATATCCA | -0.11
CAAATCCA | 0.04
CGTGAGAA | 0.101
GCTCCCCA | -0.242
TAATTCGA | -0.0229
GCCAAAAC | -0.0519
GTACCTGA | 0.102
